Assay results gathered from unrelated publications.
Compare with care: the assays were run in different laboratories. ± gives the spread as reported.
NR3C1: Glucocorticoid receptor (NR3C1, Homo sapiens, UniProt P04150)

Protein sequences, listed by entry. Tags and fused reporters are not part of them.
UniProt P04150, whole entry: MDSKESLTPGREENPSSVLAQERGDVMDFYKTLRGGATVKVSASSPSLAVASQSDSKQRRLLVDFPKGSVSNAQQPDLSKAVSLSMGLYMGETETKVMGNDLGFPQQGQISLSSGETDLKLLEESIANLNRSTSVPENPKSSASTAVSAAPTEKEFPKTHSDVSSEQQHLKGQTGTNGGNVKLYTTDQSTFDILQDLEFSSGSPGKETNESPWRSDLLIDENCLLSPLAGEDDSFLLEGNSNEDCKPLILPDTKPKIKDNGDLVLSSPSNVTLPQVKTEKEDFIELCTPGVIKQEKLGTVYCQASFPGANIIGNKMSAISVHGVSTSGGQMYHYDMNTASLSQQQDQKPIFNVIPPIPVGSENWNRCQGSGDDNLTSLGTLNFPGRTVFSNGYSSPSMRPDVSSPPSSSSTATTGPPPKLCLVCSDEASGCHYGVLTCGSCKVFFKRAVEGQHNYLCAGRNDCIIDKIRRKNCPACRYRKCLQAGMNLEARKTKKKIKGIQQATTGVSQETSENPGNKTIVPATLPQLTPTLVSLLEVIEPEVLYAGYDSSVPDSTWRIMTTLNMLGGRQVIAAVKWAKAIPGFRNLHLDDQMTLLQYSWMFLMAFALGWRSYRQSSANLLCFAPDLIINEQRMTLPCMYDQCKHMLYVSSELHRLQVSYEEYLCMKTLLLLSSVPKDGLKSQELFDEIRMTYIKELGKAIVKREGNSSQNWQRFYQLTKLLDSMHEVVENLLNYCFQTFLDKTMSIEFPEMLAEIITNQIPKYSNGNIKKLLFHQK
UniProt P09769, whole entry: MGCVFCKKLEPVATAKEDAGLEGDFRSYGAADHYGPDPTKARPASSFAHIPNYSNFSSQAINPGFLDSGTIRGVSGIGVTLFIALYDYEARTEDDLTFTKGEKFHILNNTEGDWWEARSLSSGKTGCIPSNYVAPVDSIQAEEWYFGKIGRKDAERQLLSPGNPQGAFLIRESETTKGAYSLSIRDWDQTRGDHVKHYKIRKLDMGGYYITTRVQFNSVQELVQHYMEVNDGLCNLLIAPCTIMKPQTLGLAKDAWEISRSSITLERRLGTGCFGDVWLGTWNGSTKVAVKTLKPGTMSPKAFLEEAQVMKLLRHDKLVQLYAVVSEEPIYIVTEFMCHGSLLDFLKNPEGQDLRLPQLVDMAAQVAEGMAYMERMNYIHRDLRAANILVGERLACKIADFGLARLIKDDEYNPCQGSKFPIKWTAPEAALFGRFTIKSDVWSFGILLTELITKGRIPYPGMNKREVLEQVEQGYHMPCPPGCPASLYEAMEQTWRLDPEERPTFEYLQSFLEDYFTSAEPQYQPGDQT
UniProt P10636, whole entry, looked up: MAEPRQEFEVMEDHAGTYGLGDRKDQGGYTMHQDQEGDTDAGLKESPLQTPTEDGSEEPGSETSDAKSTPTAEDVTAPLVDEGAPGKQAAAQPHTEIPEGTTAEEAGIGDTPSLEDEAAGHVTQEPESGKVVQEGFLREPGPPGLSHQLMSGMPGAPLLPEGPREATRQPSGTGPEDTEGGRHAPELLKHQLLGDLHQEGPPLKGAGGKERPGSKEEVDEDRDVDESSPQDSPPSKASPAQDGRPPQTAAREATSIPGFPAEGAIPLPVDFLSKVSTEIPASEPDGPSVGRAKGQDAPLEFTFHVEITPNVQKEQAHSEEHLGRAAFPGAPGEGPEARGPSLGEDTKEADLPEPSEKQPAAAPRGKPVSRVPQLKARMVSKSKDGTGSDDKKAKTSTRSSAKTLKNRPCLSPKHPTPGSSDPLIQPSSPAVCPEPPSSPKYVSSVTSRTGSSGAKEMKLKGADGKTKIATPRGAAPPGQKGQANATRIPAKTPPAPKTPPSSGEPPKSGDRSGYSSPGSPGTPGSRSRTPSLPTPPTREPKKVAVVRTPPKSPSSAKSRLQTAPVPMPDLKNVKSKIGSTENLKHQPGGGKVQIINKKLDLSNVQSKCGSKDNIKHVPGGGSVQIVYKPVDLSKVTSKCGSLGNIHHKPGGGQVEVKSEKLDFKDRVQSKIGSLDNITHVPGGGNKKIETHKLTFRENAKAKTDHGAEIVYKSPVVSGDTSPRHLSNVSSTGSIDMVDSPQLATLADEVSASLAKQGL

For C=C1C(=O)[C@](C)(C(=O)OC)[C@H](CCc2cn(Cc3ccc(F)cc3F)nn2)O[C@@H]1C, the half-life was 0.7 h (thiol reactivity, HPLC; 1 µM, with: 5 mM N-acetylcysteine).
The cytotoxic concentration of COc1ccc(N2C(=O)N(c3c(C)cccc3Cl)Cc3cnc(Nc4ccc(N5CCN(C)CC5)cc4OC)nc32)nc1 is reported as over 5 µM (bone marrow-derived dendritic cells, mouse).
The Vdss/F of COc1cc(CC(=O)NCC(NC(=O)C(CCCNC(=O)c2cccc(I)c2)NC(=O)C(Cc2ccc(C(F)(F)P(=O)(O)O)cc2)NC(=O)c2ccc(C)c(Br)c2)C(N)=O)ccc1O (stereo not drawn) is reported as 0.08 L (HPLC-MS/MS; mouse, plasma; intraperitoneal, 20 mg/kg).
With CC[C@H]1CC[C@H]2[C@@H]3CC=C4C[C@H](OC(C)=O)[C@@H](N)C[C@@]4(C)[C@H]3CC[C@@]12C the EC50 was over 9 µM (NR3C1; nuclear translocation, agonist, enzyme fragment complementation).
The solubility of COc1cc(OC)c(NC(=O)CSc2nnc(-c3ccccc3)n2C)cc1Cl is reported as under 2.65 µg/mL (aqueous buffer; pH 7.4).
C[C@H]1CCCN1Cc1cc2cnc(NC(=O)c3ccc4c(cnn4C)c3)cc2[nH]1: “blood counts and marrow cellularity” “no effect” (healthy C57BL/6 mouse; dose not given, 80 days after treatment end; baseline: vehicle).
CCN1CCN(Cc2ccc(NC(=O)c3ccc(C)c(Oc4ncnc5cc(OC)c(OC)cc45)c3)cc2C(F)(F)F)CC1 — result for “residual probe binding”: 2.3% (FGR (Homo sapiens, UniProt P09769); KINOMEscan competition binding; 1.0 µM).
CCc1c(-c2ccccc2)nn2c(=O)cc(-c3cccc(C(=O)O)c3)[nH]c12 gave a half-life of under 1 h (mouse; intravenous).
For Cc1c(O)cc2c(c1C)O[C@](C)(CCCC(C)C)CC2, tumour growth read “inhibited” (athymic nude mouse, LNCaP-abl xenograft; intraperitoneal, 50 mg/kg daily, 21 days; baseline: vehicle).
The delta Tm of CC[C@@H]1C(=O)N(C)c2cnc(Nc3ccc(C(=O)NC4CCN(C)CC4)cc3OC)nc2N1C1CCCC1 is reported as 4.03 ± 0.13 °C (Bromodomain testis-specific protein, BD1 (BRDT, Homo sapiens, UniProt Q58F21); 10 µM).
The EC50 of C[C@H](NCCN(C)C)[C@@H]1CC[C@@H]2[C@H]3CCc4cc(O)ccc4[C@H]3CC[C@]21C is reported as over 9 µM (NR3C1; nuclear translocation, agonist, enzyme fragment complementation).
For Fc1cc(-c2ccc3c(n2)[nH]c2ccncc23)ccn1 [isotope labelled], the specific binding was 13.2 a.u. (Microtubule-associated protein tau, paired helical filaments (MAPT, Homo sapiens, UniProt P10636); radioligand binding; PHF tau brain homogenate; 26.56 nM; higher = more binding).
For CCN(CC)C(=O)Oc1ccc(C(=O)Nc2cccc3cc[nH]c23)cc1, the solubility was 70 µM (nephelometry; aqueous solution; 3 h, room temperature).
CS(=O)(=O)c1ccc(NC(=O)CSc2nnc(-c3ccccc3F)n2-c2ccccc2)cc1 has a logD of 1.74 (octanol/buffer; pH 11).
O=C(Nc1cccnn1)N1CC(Oc2ccc(-c3ccccc3F)cn2)C1 gave a Tmax of 1.5 to 2.5 h (healthy humans; oral, 5 to 300 mg, single dose, range of medians).
The Cmax of Cc1cc(C)c(CNC(=O)c2cc(-c3ccc(N4CCN(CCNC(=O)CC56CC7CC(CC(C7)C5)C6)CC4)nc3)cc3c2cnn3C(C)C)c(=O)[nH]1 is reported as 2900 nM (mouse Swiss albino male, plasma; i.p., 50 mg/kg single).
The stability of Cc1cccc(NC(=O)c2nn(Cc3cnc[nH]3)c3c2CN(C(=O)c2ccc[nH]2)CC3)c1 is reported as at least 14 days (culture medium).
For Fc1cccc(-n2cnc3c(NCc4nc5cc(Cl)ccc5[nH]4)nc(N4CCNCC4)nc32)c1, the solubility was 60 µM (DMEM with 10% FBS).
